Measurements gathered from unrelated publications.
Each line is one published result; not all experiments were run side by side. Values joined by “and” are separate records of one study, mostly repeats; a detail may differ. Numbers after ± are the reported error.
HDAC1: Histone deacetylase 1 (HDAC1, Homo sapiens, UniProt Q13547)
Sequence of UniProt Q13547 (whole entry, looked up): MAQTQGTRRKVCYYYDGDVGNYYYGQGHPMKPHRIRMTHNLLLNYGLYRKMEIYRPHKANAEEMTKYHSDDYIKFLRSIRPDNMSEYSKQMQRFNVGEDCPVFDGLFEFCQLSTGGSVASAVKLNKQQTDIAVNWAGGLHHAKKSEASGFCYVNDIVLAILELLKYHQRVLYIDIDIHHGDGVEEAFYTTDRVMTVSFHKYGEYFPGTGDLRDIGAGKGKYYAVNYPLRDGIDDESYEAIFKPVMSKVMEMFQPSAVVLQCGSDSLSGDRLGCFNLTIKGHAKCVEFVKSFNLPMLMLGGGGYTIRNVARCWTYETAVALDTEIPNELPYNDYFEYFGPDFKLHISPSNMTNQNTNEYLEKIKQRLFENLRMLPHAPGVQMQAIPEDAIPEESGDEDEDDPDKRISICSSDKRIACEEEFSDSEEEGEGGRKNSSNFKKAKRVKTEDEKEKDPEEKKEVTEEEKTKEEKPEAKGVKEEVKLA
ALPI: Intestinal-type alkaline phosphatase (ALPI, Bos taurus, UniProt P19111)
Kir3.1/Kir3.2: Kir3.1/Kir3.2 (Homo sapiens, UniProt P48051+P48549)
Sequence of UniProt P48051 (whole entry, looked up): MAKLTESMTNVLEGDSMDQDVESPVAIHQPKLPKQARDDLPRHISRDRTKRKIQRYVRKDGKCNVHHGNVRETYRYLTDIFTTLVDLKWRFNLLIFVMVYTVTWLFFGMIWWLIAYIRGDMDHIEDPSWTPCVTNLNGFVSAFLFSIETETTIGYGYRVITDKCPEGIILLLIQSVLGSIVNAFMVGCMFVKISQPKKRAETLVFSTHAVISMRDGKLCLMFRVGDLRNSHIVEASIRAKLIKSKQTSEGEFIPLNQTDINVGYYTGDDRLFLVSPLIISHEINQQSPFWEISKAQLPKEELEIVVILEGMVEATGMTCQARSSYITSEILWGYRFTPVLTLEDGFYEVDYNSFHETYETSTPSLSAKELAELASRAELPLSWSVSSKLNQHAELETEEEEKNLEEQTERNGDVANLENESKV
Sequence of UniProt P48549 (whole entry, looked up): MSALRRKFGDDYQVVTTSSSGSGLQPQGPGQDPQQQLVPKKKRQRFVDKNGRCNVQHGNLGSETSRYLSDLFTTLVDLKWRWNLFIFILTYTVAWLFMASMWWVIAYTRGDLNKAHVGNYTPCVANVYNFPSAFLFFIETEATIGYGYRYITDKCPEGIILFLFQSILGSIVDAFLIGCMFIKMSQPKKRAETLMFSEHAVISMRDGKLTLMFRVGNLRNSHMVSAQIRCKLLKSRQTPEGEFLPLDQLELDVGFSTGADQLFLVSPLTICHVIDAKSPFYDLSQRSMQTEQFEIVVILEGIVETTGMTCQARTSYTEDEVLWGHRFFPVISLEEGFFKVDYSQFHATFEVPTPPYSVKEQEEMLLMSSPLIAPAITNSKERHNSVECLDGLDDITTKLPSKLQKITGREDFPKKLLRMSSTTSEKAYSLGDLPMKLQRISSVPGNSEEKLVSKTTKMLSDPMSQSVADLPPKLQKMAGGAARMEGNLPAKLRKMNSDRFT
Ephx2: Bifunctional epoxide hydrolase 2 (Ephx2, Mus musculus, UniProt P34914)
Sequence of UniProt P34914 (whole entry, looked up): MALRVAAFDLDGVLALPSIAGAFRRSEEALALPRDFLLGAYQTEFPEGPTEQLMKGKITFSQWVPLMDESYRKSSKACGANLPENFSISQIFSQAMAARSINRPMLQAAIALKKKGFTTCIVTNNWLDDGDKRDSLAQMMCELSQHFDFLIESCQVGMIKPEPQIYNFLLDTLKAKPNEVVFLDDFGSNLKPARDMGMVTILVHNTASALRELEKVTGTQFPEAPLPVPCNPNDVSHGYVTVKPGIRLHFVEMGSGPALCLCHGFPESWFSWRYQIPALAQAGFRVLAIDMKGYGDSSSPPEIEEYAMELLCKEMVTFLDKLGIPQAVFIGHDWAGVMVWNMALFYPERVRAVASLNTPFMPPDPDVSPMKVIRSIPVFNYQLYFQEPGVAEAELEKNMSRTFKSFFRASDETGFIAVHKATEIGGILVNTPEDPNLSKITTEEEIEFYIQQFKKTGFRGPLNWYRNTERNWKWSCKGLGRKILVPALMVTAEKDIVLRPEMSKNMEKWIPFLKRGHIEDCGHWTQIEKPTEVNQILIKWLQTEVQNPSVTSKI
EGLN1: Egl nine homolog 1 (EGLN1, Homo sapiens, UniProt Q9GZT9)
BACE1: Beta-secretase 1 (BACE1, Homo sapiens, UniProt P56817)
Sequence of UniProt P56817 (whole entry, looked up): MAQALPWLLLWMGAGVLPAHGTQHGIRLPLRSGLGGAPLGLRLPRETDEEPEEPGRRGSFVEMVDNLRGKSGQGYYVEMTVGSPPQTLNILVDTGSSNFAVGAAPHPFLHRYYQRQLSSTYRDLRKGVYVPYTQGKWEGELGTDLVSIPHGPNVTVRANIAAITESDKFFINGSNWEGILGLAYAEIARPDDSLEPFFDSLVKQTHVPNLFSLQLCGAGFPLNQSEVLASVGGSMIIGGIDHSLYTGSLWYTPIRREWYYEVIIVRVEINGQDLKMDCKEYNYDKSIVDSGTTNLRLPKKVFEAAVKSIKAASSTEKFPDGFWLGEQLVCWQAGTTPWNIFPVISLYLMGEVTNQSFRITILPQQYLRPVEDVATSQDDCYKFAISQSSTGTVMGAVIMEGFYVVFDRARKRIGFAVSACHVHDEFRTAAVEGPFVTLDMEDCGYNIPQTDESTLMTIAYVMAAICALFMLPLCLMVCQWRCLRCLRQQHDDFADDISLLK
Grik2: Glutamate receptor ionotropic, kainate 2 (Grik2, Rattus norvegicus, UniProt P42260)
Sequence of UniProt P42336 (whole entry, unmodified, looked up): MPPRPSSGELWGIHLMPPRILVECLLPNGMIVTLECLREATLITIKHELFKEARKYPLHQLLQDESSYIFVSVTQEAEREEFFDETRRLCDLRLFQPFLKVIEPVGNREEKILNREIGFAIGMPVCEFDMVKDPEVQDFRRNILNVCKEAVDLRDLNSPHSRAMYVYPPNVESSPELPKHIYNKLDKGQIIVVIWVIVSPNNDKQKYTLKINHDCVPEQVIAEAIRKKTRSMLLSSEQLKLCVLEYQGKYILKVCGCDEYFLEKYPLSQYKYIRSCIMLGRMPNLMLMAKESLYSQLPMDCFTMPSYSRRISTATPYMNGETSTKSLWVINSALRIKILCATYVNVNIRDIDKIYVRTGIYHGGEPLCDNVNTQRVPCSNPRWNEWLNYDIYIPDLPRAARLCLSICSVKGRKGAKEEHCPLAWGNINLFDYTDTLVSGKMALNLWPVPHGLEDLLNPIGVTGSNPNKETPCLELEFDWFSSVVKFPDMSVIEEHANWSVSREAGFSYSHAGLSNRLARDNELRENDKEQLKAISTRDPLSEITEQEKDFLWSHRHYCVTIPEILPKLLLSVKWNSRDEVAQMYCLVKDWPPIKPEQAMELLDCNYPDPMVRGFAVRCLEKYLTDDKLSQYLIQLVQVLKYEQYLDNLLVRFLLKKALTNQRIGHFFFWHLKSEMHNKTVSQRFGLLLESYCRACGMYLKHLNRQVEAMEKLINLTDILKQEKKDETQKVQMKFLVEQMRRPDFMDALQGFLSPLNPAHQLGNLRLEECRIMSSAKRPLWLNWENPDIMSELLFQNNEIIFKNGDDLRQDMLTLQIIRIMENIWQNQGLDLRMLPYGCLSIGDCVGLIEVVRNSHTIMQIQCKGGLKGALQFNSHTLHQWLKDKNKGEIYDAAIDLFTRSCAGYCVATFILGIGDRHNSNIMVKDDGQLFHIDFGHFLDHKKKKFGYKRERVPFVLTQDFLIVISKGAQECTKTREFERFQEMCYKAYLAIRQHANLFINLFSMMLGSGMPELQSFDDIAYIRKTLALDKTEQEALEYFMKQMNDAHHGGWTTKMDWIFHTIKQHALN

O=C(NO)c1ccc(Cn2c(C(F)(F)F)nc3ccccc32)c(F)c1 — IC50 (HDAC1; enzyme activity, inhibitor): 24.6 µM
O=C1NC2=C(C(=O)N(Cc3ccccc3)C2)C(c2ccccc2O)N1 (stereo not shown) — IC50 (ALPI; enzyme activity, inhibitor, absorbance; pH 9.5): 7.68 µM
CC(C)NCc1ccc(C[C@@H]2NC(=O)[C@@H](N(C)C(=O)c3ccc4ccccc4c3)NC(=O)[C@H](Cc3ccccc3)NC(=O)[C@@H](N)CSSC[C@@H](C(N)=O)NC(=O)[C@H](Cc3ccc(O)cc3)NC2=O)cc1 — IC50 (SSTR4 (Homo sapiens, UniProt P31391); ligand displacement, radioligand; cell membranes): 0.695 µM and 0.481 µM
O=c1cc(N2CCOCC2)oc2c(OCc3ccccc3)cccc12 — IC50 (PIK3CA (Homo sapiens, UniProt P42336, H855E); enzyme activity, inhibitor): 2.3 µM
CN1CCN(C2CCC(n3cc(-c4ccc(Oc5ccccc5)cc4)c4c(N)ncnc43)CC2)CC1 (stereo not shown) — IC50 (HCK (Homo sapiens, UniProt P08631); autophosphorylation, inhibitor, item: HCK pY416; TF-1 expressing FLT3-ITD): < 0.03 µM
O=C(O)c1ccccn1 — IC50 (mushroom tyrosinase; monophenolase activity, inhibitor; pH 6.8, 20 °C, added: p-coumaric acid substrate): 3540 µM
CSc1nnc2[nH]nc(C)c2n1 — IC50 (deoD (Escherichia coli, UniProt P0ABP8); enzyme activity, inhibitor): ~40 µM
Cc1cc(OCC(O)Cn2c(=N)n(Cc3ccccc3)c3ccccc32)ccc1Br (stereo not shown) — IC50 (Kir3.1/Kir3.2; ion flux): 3.43 µM
Cc1ccc(S(=O)(=O)N[C@@H](CC(=O)NC(C)(C)C)C(=O)N[C@@H](C)CC(=O)NCc2cccc3ccccc23)cc1 — IC50 (Proteasome component C5/PSMB8 (Homo sapiens, UniProt P20618+P28062); chymotrypsin-like activity, inhibitor; added: ac-ANW-AMC): 0.0055 ± 0.001 µM
O=C(O)c1cc2c(C(F)(F)F)cc(-c3ccccc3)cc2n1O — IC50 (LDHA (Homo sapiens, UniProt P00338); inhibitor, NADH fluorescence; pyruvate competition, added: 150 µM NADH, 200 µM pyruvate): 73.4 ± 11 µM
heparin — IC50 (Platelet factor 4 (Homo sapiens, UniProt P02776); binding, competitor, biolayer interferometry; 25 °C): 0.00146 ± 9e-05 µM
O=C(Nc1cc(F)c(Cl)c(F)c1)c1cc(S(=O)(=O)N2CCOCC2)c(Cl)cc1Cl — IC50 (LPAR5 (Homo sapiens, UniProt Q9H1C0); Ca2+ mobilization, antagonist; B103; added: LPA at EC50): > 100 µM
N=c1n(Cc2ccccc2)c2ccccc2n1CC(O)CN1CCOCC1 (stereo not shown) — IC50 (Kir3.1/Kir3.2; ion flux): 15.3 µM
O=C1NC2=C(C(=O)N(Cc3ccc(Cl)cc3)C2)C(c2ccc(O)cc2)N1 (stereo not shown) — IC50 (ALPI; enzyme activity, inhibitor, absorbance; pH 9.5): 5.36 µM
Nc1nc(N)c(N=O)c(OCc2ccc(Cl)cc2)n1 — IC50 (PIK3CA (Homo sapiens, UniProt P42336); enzyme activity, inhibitor): 2.5 µM and 6.2 µM
COC(=O)CC[C@@H](C)[C@H]1CC[C@H]2[C@@H]3CC[C@@H]4C[C@H](N)CC[C@]4(C)[C@H]3CC[C@]12C — IC50 (human 20S proteasome; chymotrypsin-like activity, inhibitor; added: PA28): > 10 µM
COc1cc(/C=C/C(=O)CC(=O)/C=C/c2ccc(O)c(OC)c2)ccc1O — IC50 (mushroom tyrosinase; inhibitor; added: L-tyrosine): 39.6 ± 5.76 µM
CCOC(=O)[C@H](CCCN=C(N)N)NC(=O)c1ccccc1 — IC50 (PADI4 (Homo sapiens, UniProt Q9UM07); binding, fluorescence polarisation; no calcium, added: fluorescent probe 10 nM): 12500 µM
C[C@]12CC3CC(Nc4c(Nc5ccc(C(=O)N6CCC[C@H](C(=O)NCCCCCC(=O)NO)C6)cc5)c(=O)c4=O)(C1)C[C@@](C)(C3)C2 — IC50 (Ephx2; enzyme activity, inhibitor, fluorescence): 16.1 µM
Cc1ccc(-c2nnc3sc(-c4ccc(C(C)(C)C)cc4)nn23)cc1 — IC50 (PIM1 (Homo sapiens, UniProt P11309); kinase activity, inhibitor, ADP-Glo): ≤ 7.5 µM
CCCC[C@H](NC(=O)CNC(=O)[C@H](CCCCN)NC(=O)[C@@H](NC(=O)[C@H](CCC(=O)O)NC(=O)CNC(=O)[C@H](CCCNC(=N)N)NC(=O)[C@@H]1CCCN1C(=O)[C@H](CCCCN)NC(=O)[C@@H](N)CCCCN)[C@@H](C)O)C(=O)N[C@H](C(=O)N[C@@H](Cc1ccc(O)cc1)C(N)=O)[C@@H](C)CC — IC50 (human 20S proteasome (latent); trypsin-like activity, inhibitor; 10 min preincubation, pH 8.0, 37 °C, added: Boc-LRR-MCA): 0.35 µM
CCOC(=O)C1=C(O)C(=O)N(Cc2ccccc2)C1 — IC50 (AKR1B10 (Homo sapiens, UniProt O60218); enzyme activity, inhibitor): 12 µM
O=C(O)/C=C\C(=O)NNC(=O)c1ccc2ccccc2n1 — IC50 (EGLN1; inhibitor, AlphaScreen; bimodal curve, rough estimate, added: 2 µM 2-oxoglutarate): > 300 µM
CCCCC[C@H](CC(=O)NO)C(=O)N[C@H](C(=O)N1CCC[C@H]1CO)C(C)C — IC50 (MEP1B (Homo sapiens, UniProt Q16820); enzyme activity, inhibitor, FRET): 7.7 µM and 6.2 µM
NCCCCCCCCCCCCN — IC50 (Grin1/Grin2a/Grin2b, channel binding site (Rattus norvegicus, UniProt P35439+Q00959+Q00960); pH 7): 7.05 ± 2.38 µM
C[C@]12C[C@@H]3C[C@](C)(C1)C[C@@](NC(=O)Nc1ccc(CN4CCC[C@H](C(=O)NCCCC(=O)NO)C4)cc1F)(C3)C2 — IC50 (Ephx2; enzyme activity, inhibitor, fluorescence): 0.0008 µM
N=c1n(Cc2ccccc2)c2ccccc2n1CC(O)COc1ccc(Cl)cc1 (stereo not shown) — IC50 (Kir3.1/Kir3.2; ion flux): 2.9 µM
CC(Cc1c[nH]c2ccccc12)(NC(=O)Nc1ccc([N+](=O)[O-])cc1)C(=O)NCC1(c2ccccn2)CCCCC1 (stereo not shown) — IC50 (NMBR (Homo sapiens, UniProt P28336); inositol phosphate generation, antagonist; Balb 3T3 expressing NMBR; added: neuromedin B 1 nM): 0.0194 ± 0.0007 µM
COC(=O)C1=C(C)NC(C)=C(C(=O)OCCN(C)Cc2ccccc2)C1c1cccc([N+](=O)[O-])c1 (stereo not shown) — IC50 (ABCC1 (Homo sapiens, UniProt P33527); efflux, inhibitor; SupT1-Vin overexpressing ABCC1; added: BODIPY FL verapamil 100 nM): 2.6 ± 1.1 µM
Cc1cc(OCc2nc(N)nc(N)c2-c2ccc(Cl)c(Cl)c2)ccc1[N+](=O)[O-] — IC50 (BACE1; inhibitor, FRET; pH 4.5): 829 ± 346 µM
NCCC(Oc1ccc(C(F)(F)F)cc1)c1ccccc1 (stereo not shown) — IC50 (Slc6a4 (Mus musculus, UniProt Q60857); [3H]5-HT uptake; brain synaptosomes; 10 min, pH 7.4, 37 °C, wild type, added: [3H]5-HT 100 nM): 0.16 µM
N#Cc1cc(F)cc(OCC(O)Cn2c(=N)n(Cc3ccccc3)c3ccccc32)c1 (stereo not shown) — IC50 (Kir3.1/Kir3.2; ion flux): 1.93 µM
CN1CCCN(C(=O)c2cccc(-c3ccc(/C=C4/C(=O)Nc5ccc(Cl)cc54)o3)c2)CC1 — IC50 (CSNK2A1 (Homo sapiens, UniProt P68400); enzyme activity, inhibitor): 3.9 µM
Cc1occc(=O)c1O — IC50 (EGLN1; ODDD peptide hydroxylation, inhibitor, MALDI-TOF; first site of biphasic curve, added: 2-oxoglutarate 10 µM): 16 µM
CC(/C=C/c1ccc(OCC(=O)Nc2ccccc2)cc1)=N\O — IC50 (PPARG (Homo sapiens, UniProt P37231); ligand displacement, TR-FRET): 22.8 µM
CC12CC3CC(C)(C1)CC(Nc1c(Nc4ccc(C(=O)N5CCC[C@H](C(=O)NCCCCCCC(=O)NO)C5)cc4)c(=O)c1=O)(C3)C2 — IC50 (Ephx2; enzyme activity, inhibitor, fluorescence): 23.2 µM
C[C@@H](O)[C@H](F)[C@@H](O)[C@H](O)C(=O)CO — IC50 (3-dehydroquinate synthase, chloroplastic (DHQS, Arabidopsis thaliana, UniProt Q8VYV7); enzyme activity, inhibitor, malachite green phosphate release; 29 °C): 250 µM
Oc1cccn(Cc2ccc(-c3ccncc3)cc2)c1=S — IC50 (HDAC1; enzyme activity, inhibitor, SAMDI mass spectrometry): > 10 µM
O=C(Nc1cc(C(=O)Nc2ccc(S(=O)(=O)O)cc2S(=O)(=O)O)cc(C(=O)Nc2ccc(S(=O)(=O)O)cc2S(=O)(=O)O)c1)Nc1cc(C(=O)Nc2ccc(S(=O)(=O)O)cc2S(=O)(=O)O)cc(C(=O)Nc2ccc(S(=O)(=O)O)cc2S(=O)(=O)O)c1 — IC50 (MBNL1 (CAG)20 RNA interaction; binding, inhibitor, filter binding; added: MBNL1 200 nM): 98.7 ± 9.6 µM
CN(c1ccccc1Cl)S(=O)(=O)C1CC2OC1C(c1ccc(O)cc1)=C2c1ccc(O)cc1 (stereo not shown) — IC50 (ESR2 (Homo sapiens, UniProt Q92731); reporter gene, antagonist, luciferase): 0.12 µM
CN(C1CN(C(=O)OC(C(F)(F)F)C(F)(F)F)C1)C(c1ccc(F)cc1)c1ccc(F)cc1 — IC50 (ABHD6 (Homo sapiens, UniProt Q9BV23); enzyme activity, inhibitor, fluorescence): 0.283 µM
O=C(O)c1cccc(-n2c(/C=C/c3ccccc3[N+](=O)[O-])nc3ccccc3c2=O)c1 — IC50 (Grik2; ion current, inhibitor, two-electrode voltage clamp; Xenopus oocytes; concanavalin A pretreatment, added: 100 µM glutamate): > 300 µM
O=C(NNC(=O)c1ccc(CNS(=O)(=O)c2ccc(F)c(Cl)c2)cc1)c1ccccc1 — IC50 (Glutamate NMDA receptor; Grin1/Grin2a (Grin1/Grin2a, Rattus norvegicus, UniProt P35439+Q00959, M788A); ion current, two-electrode voltage clamp; oocytes): 0.62 µM
O=c1c(O)c(-c2ccc(O)c(O)c2)oc2cc(O)cc(O)c12 — IC50 (UGT1A1 (Homo sapiens, UniProt P22309); glucuronidation; pooled human liver microsomes; no preincubation): 54 µM
COC(=O)c1cc(CN2CCN(C(=N)N)CC2)cc(C(=O)N2CCN(C(=O)c3ccc(C(=N)N)cc3)CC2)c1 — IC50 (KDM1A (Homo sapiens, UniProt O60341); enzyme activity, inhibitor): 1 to 5 µM
Clc1ccc(CN2CCCN(Cc3ccc(Cl)cc3)C2c2cc3ccccc3c3ccccc23)cc1 — IC50 (BACE1; enzyme activity, inhibitor, FRET; pH 4.5): 40 µM
C=C(C)CCOP(=O)(O)OP(=O)(O)OP(=O)(O)OC[C@H]1O[C@@H](n2cnc3c(N)ncnc32)[C@H](O)[C@@H]1O — IC50 (ERBB4 (Homo sapiens, UniProt Q15303); enzyme activity, inhibitor, HotSpot kinase; added: ATP 1 µM): 2.7 µM
CCCCC/C=C\C/C=C\C/C=C\C/C=C\CCCC(=O)O — IC50 (CES1 (Homo sapiens, UniProt P23141); enzyme activity, inhibitor, fluorescence): ~10 µM
hemin — IC50 (MDH2 (Sus scrofa, UniProt P00346); enzyme activity, inhibitor; pH 7, no detergent): 1.9 µM
CC(=O)N[C@H]1[C@@H](O[C@H]2[C@H](O)[C@@H](O)[C@H](O[C@H]3[C@H](O)[C@@H](NC(C)=O)[C@@H](OCCCCCN)O[C@@H]3COS(=O)(=O)O)O[C@H]2C(=O)O)O[C@H](COS(=O)(=O)O)[C@@H](O[C@@H]2O[C@@H](C(=O)O)[C@@H](O)[C@H](O)[C@H]2O)[C@@H]1O — IC50 (BACE1; enzyme activity, inhibitor, FRET; pH 4.5): 32 µM
O=C(O)c1ccc(-n2c(/C=C/c3ccc([N+](=O)[O-])cc3)nc3ccccc3c2=O)cc1 — IC50 (Grik2; ion current, inhibitor, two-electrode voltage clamp; Xenopus oocytes; concanavalin A pretreatment, added: 100 µM glutamate): > 300 µM
CC(O)c1cc(C(=O)N[C@@H](C)Cn2ccc(-c3ccc(C#N)c(Cl)c3)n2)[nH]n1 (stereo partly shown) — IC50 (SLCO1B3 (Homo sapiens, UniProt Q9NPD5); transporter uptake, inhibitor; with preincubation): 5 µM

Repeated from above:
N#Cc1cc(F)cc(OCC(O)Cn2c(=N)n(Cc3ccccc3)c3ccccc32)c1 (stereo not shown) — IC50 (Kir3.1/Kir3.2; ion flux): 1.93 µM
CC(C)NCc1ccc(C[C@@H]2NC(=O)[C@@H](N(C)C(=O)c3ccc4ccccc4c3)NC(=O)[C@H](Cc3ccccc3)NC(=O)[C@@H](N)CSSC[C@@H](C(N)=O)NC(=O)[C@H](Cc3ccc(O)cc3)NC2=O)cc1 — IC50 (SSTR4 (Homo sapiens, UniProt P31391); ligand displacement, radioligand; cell membranes): 0.695 µM and 0.481 µM
COC(=O)c1cc(CN2CCN(C(=N)N)CC2)cc(C(=O)N2CCN(C(=O)c3ccc(C(=N)N)cc3)CC2)c1 — IC50 (KDM1A (Homo sapiens, UniProt O60341); enzyme activity, inhibitor): 1 to 5 µM
Cc1cc(OCC(O)Cn2c(=N)n(Cc3ccccc3)c3ccccc32)ccc1Br (stereo not shown) — IC50 (Kir3.1/Kir3.2; ion flux): 3.43 µM
hemin — IC50 (MDH2 (Sus scrofa, UniProt P00346); enzyme activity, inhibitor; pH 7, no detergent): 1.9 µM
O=C(Nc1cc(C(=O)Nc2ccc(S(=O)(=O)O)cc2S(=O)(=O)O)cc(C(=O)Nc2ccc(S(=O)(=O)O)cc2S(=O)(=O)O)c1)Nc1cc(C(=O)Nc2ccc(S(=O)(=O)O)cc2S(=O)(=O)O)cc(C(=O)Nc2ccc(S(=O)(=O)O)cc2S(=O)(=O)O)c1 — IC50 (MBNL1 (CAG)20 RNA interaction; binding, inhibitor, filter binding; added: MBNL1 200 nM): 98.7 ± 9.6 µM
